# Results gathered from unrelated publications.
# Protocols differ between the studies behind these lines. Several values in a cell are separate wells, animals, samples, runs or records. ± gives the spread as reported.
# CatSper channel complex: CatSper channel complex (Homo sapiens, UniProt Q7RTX7+Q86XQ3+Q8NEC5+Q96P56)
# PSMB6: Proteasome subunit beta type-6 (PSMB6, Homo sapiens, UniProt P28072)
SMILES,target,assay,test system,conditions,IC50
N=C(N)NCCC[C@@H]1NC(=O)[C@H](Cc2c[nH]c3ccccc23)NC(=O)[C@H](CCCNC(=N)N)NC(=O)[C@H](Cc2c[nH]c3ccccc23)NC(=O)[C@H](CCCNC(=N)N)NC(=O)[C@H](Cc2c[nH]c3ccccc23)NC(=O)[C@H](CCCNC(=N)N)NC(=O)[C@H](Cc2c[nH]c3ccccc23)NC(=O)[C@H](CCCNC(=N)N)NC(=O)[C@H](Cc2c[nH]c3ccccc23)NC(=O)[C@H](CCCNC(=N)N)NC(=O)[C@H](Cc2c[nH]c3ccccc23)NC1=O,"ALK (Homo sapiens, UniProt Q9UM73)","enzyme activity, inhibitor",,,280 nM
N#Cc1c(F)c(Cl)c2nc(SCc3ccc(Cl)c(Cl)c3)nc(N)c2c1F,"CDC25B (Homo sapiens, UniProt P30305)","enzyme activity, inhibitor, fluorescence",,,973 nM and < 1160 nM
CCCC[C@H](NC(=O)COCC(=O)NCCCOCCOCCOCCCNC(=O)[C@H](Cc1c[nH]c2ccccc12)NC(=O)[C@H](CCCNC(=N)N)NC(=O)[C@@H](Cc1ccccc1)NC(=O)[C@H](Cc1c[nH]cn1)NC(=O)[C@H](CCC(=O)O)NC(=O)[C@H](CCCC)NC(=O)[C@H](CO)NC(C)=O)C(=O)NCC(=O)N[C@@H](Cc1c[nH]c2ccccc12)C(=O)N[C@@H](CCCC)C(=O)N[C@@H](CC(=O)O)C(=O)N[C@@H](Cc1ccccc1)C(N)=O,"CCKBR (Homo sapiens, UniProt P32239)","ligand displacement, CCK-8",,,11 nM
Cc1cc(NC(=O)Cc2ccccc2)c2ccccc2n1,CatSper channel complex,"calcium influx, inhibitor, FLIPR",human sperm,with: 3 µM progesterone,> 100000 nM
C=C(NC(=O)C(=C)NC(=O)c1csc(C2=NC3c4csc(n4)C4NC(=O)c5csc(n5)C(C(C)(O)C(C)O)NC(=O)C5CSC(=N5)C(=CC)NC(=O)C(C(C)O)NC(=O)c5csc(n5)C3(CC2)NC(=O)C(C)NC(=O)C(=C)NC(=O)C(=C)NC(=O)C(C(C)CC)NC2C=Cc3c(C(C)O)cc(nc3C2O)C(=O)OC4C)n1)C(N)=O (centres unmarked),PSMB6,"caspase-like activity, inhibitor",purified human 20S proteasome,"37 °C, 15 min preincubation, with: Ac-Nle-Pro-Nle-Asp-AMC",510 ± 30 nM
CCC(NC(=O)C(CC(C)C)NC(=O)NCc1ccccc1)C(=O)C(=O)NCc1cc(F)cc(OC)c1 (centres unmarked),"Calpain-1 catalytic subunit (Capn1, Mus musculus, UniProt O35350)","enzyme activity, inhibitor",mouse pons-cerebellum membranes,with: calcium 20 µM,178 nM
Clc1cc(Br)c2c(c1)CCc1cccnc1C2=C1CCNCC1,"Protein farnesyltransferase (Homo sapiens, UniProt P49354+P49356)","enzyme activity, inhibitor",,,53000 nM
O=C(NCc1cccc(CN2CCCC2=O)c1)NCC(c1ccccc1)c1ccccc1,"SCN5A (Homo sapiens, UniProt Q14524)","ion current, inhibitor, patch clamp",,,25700 nM
CC12CC3CC(C)(C1)CC(NC(=O)Nc1ccc(C(=O)N4CCCC(C(=O)O)C4)cc1)(C3)C2 (centres unmarked),"EPHX2 (Homo sapiens, UniProt P34913)","enzyme activity, inhibitor",,,0.42 nM
COCCCN1CCc2c(Cc3ccc(Cl)cc3)[nH]c3c(OC(F)F)ccc(c23)C1=O,"PDE6C (Homo sapiens, UniProt P51160)","enzyme activity, inhibitor",,,54.3 nM
O=C(CCCCCCNCc1cccnc1)NO,"HDAC8 (Homo sapiens, UniProt Q9BY41)","enzyme activity, inhibitor, fluorescence",,,1600 nM
O=C(Nc1nc2ccccc2c2nccn12)c1cccnc1,"PIK3CB (Homo sapiens, UniProt P42338)","enzyme activity, inhibitor, radiometric",,,1040 nM
O=C(Nc1ccc(Cl)cc1)c1cccc(S(=O)(=O)N2CCOCC2)c1,"Ectonucleoside triphosphate diphosphohydrolase 1 (Homo sapiens, UniProt P49961)","enzyme activity, inhibitor, absorbance",,,17500 nM
C#CCSc1nc(Nc2cccc(C(F)(F)F)c2)c(C#N)c(-c2ccccc2)n1,"KDM1A (Homo sapiens, UniProt O60341)","enzyme activity, inhibitor, fluorescence",,,> 64000 nM
C[C@@H]1CCN(c2nc3ccc(Cl)cc3o2)CCN1S(=O)(=O)c1ccc(C(C)(C)C)cc1,"HCRTR2 (Homo sapiens, UniProt O43614)","calcium signal, antagonist, fluorescence",,,1320 nM
O=c1c2ccccc2sn1Cc1ccccc1,"HDAC9 (Homo sapiens, UniProt Q9UKV0)","enzyme activity, inhibitor",,,6190 nM
O=C(Nc1ccc(-c2nc3ccccc3s2)cc1)C1CCN(S(=O)(=O)c2ccccc2Cl)CC1,"Ephx2 (Rattus norvegicus, UniProt P80299)","enzyme activity, inhibitor, fluorescence",,pH 7.4,3.9 nM
O=C(Nc1ccc(-c2nc(-c3ccccc3)cs2)cc1)C1CCN(Cc2ccc(F)cc2F)CC1,"FAAH (Homo sapiens, UniProt O00519)","enzyme activity, inhibitor, fluorescence",,"pH 8, with preincubation",231 nM
C=C(NC(=O)C(=C)NC(=O)c1csc(C2=NC3c4csc(n4)C4NC(=O)c5csc(n5)C(C(C)(O)C(C)O)NC(=O)C5CSC(=N5)C(=CC)NC(=O)C(C(C)C)NC(=O)c5csc(n5)C3(CC2)NC(=O)C(C)NC(=O)C(=C)NC(=O)C(C)NC(=O)C(C(C)CC)NC2C=Cc3c(C(C)O)cc(nc3C2O)C(=O)OC4C)n1)C(N)=O (centres unmarked),PSMB6,"caspase-like activity, inhibitor",purified 20S proteasome,"15 min preincubation, 37 °C, with: Ac-Nle-Pro-Nle-Asp-AMC substrate",1680 ± 190 nM
CC(C)C[C@H](NC(=O)[C@H](CC(N)=O)NC(=O)[C@H](CC(C)C)NC(=O)[C@@H](NC(=O)[C@@H](NC(=O)[C@@H]1CCCN1C(=O)[C@H](CCCNC(=N)N)NC(=O)[C@H](CCCCN)NC(=O)[C@@H]1CCCN1)[C@@H](C)O)[C@@H](C)O)C(=O)N[C@@H](Cc1ccccc1)C(=O)NCCCCCC(=O)N[C@@H](CCCNC(=N)N)C(=O)N[C@@H](CCCNC(=N)N)C(=O)N[C@@H](CCCNC(=N)N)C(=O)N[C@@H](CCCNC(=N)N)C(=O)N[C@@H](CCCNC(=N)N)C(=O)N[C@@H](CCCNC(=N)N)C(=O)N[C@@H](CCCNC(=N)N)C(=O)N[C@@H](CCCNC(=N)N)C(=O)N[C@@H](CCCNC(=N)N)C(N)=O,"Mapk1 (Rattus norvegicus, UniProt P63086)","enzyme activity, inhibitor, radiometric",,pH 7.5,206000 nM
CN(C)C/C=C/C(=O)Nc1ccc2nc(NCCCCCN(C)C)nc(NCCCCCCN(C)C)c2c1,"PHD finger protein 19, Tudor and PHD domains (Homo sapiens, UniProt Q5T6S3)","methyl-lysine binding, TR-FRET",,,> 100000 nM
Cc1ccc(C(=O)C2=C(O)C(=O)N(CC(C)O)C2c2ccc(C(C)C)cc2)cn1 (centres unmarked),"Protein S100-A10, with annexin A2 (Homo sapiens, UniProt P60903)","annexin A2 binding, inhibitor, FRET competition",,,794000 nM
CC(C)(C)NCCCNC(=O)c1ccnc(C(F)(F)F)c1,"KDM5A (Homo sapiens, UniProt P29375)","methyl-lysine reader binding, inhibitor, AlphaScreen",,,> 100000 nM
O=C(O[C@H]1Cc2c(O)cc(O)cc2O[C@@H]1c1ccc(O)cc1)c1cc(O)c(O)c(O)c1,"Si (Rattus norvegicus, UniProt P23739)","enzyme activity, inhibitor",,,59400 nM
CN(C)c1nc(N)c(C(=O)NC(=N)N)nc1Cl,CatSper channel complex,"calcium influx, inhibitor, FLIPR",human sperm,with: 3 µM progesterone,67000 ± 12000 nM
C[C@]12C[C@H](c3ccccc3)C3=C4CCC(=O)C=C4CC[C@H]3[C@@H]1CC[C@@]2(O)C(F)(F)C(F)(F)F,"PGR (Homo sapiens, UniProt P06401)","reporter gene, antagonist, luciferase",,,0.17 nM
[Cl][Au-]1([Cl])[N+](=P(c2ccccc2)(c2ccccc2)C2C=CC=C2)Cc2cccc[n+]21.[Cl][Au-]1([Cl])[N+](=P(c2ccccc2)(c2ccccc2)C2C=CC=C2)Cc2cccc[n+]21.[Fe+2].[O-][Cl+3]([O-])([O-])[O-].[O-][Cl+3]([O-])([O-])[O-],"PARP1 (Homo sapiens, UniProt P09874)","enzyme activity, inhibitor, absorbance",,,1000 nM
CC[C@H](C)[C@H](NC(=O)[C@H](C)NC(=O)[C@H](CCCCN)NC(=O)[C@@H](NC(=O)[C@H](CO)NC(=O)[C@@H](NC(=O)[C@H](C)NC(=O)[C@H](CC(=O)O)NC(=O)[C@@H](NC(=O)[C@H](CCCCN)NC(=O)CNC(=O)[C@@H](N)CCCCN)[C@@H](C)O)[C@@H](C)CC)C(C)C)C(N)=O,"Lymphocyte function-associated antigen 3 (CD58, Homo sapiens, UniProt P19256)","cell adhesion, inhibitor",Jurkat and OVCAR-3,,> 100000 nM
"CC1(C)C2CC3C(c4ccccc4)c4c(O)c(C=O)c(O)c(C=O)c4OC3(C)C1C2 (single isomer, unassigned; (+))","Lysophosphatidylserine lipase ABHD12 (Homo sapiens, UniProt Q8N2K0)","lysophosphatidylserine hydrolysis, inhibitor, LC-MS",HEK293T cell lysate,apparent,18900 nM

# A few entries again:
SMILES,target,assay,test system,conditions,IC50
COCCCN1CCc2c(Cc3ccc(Cl)cc3)[nH]c3c(OC(F)F)ccc(c23)C1=O,"PDE6C (Homo sapiens, UniProt P51160)","enzyme activity, inhibitor",,,54.3 nM
O=C(CCCCCCNCc1cccnc1)NO,"HDAC8 (Homo sapiens, UniProt Q9BY41)","enzyme activity, inhibitor, fluorescence",,,1600 nM
O=C(Nc1nc2ccccc2c2nccn12)c1cccnc1,"PIK3CB (Homo sapiens, UniProt P42338)","enzyme activity, inhibitor, radiometric",,,1040 nM
O=C(Nc1ccc(Cl)cc1)c1cccc(S(=O)(=O)N2CCOCC2)c1,"Ectonucleoside triphosphate diphosphohydrolase 1 (Homo sapiens, UniProt P49961)","enzyme activity, inhibitor, absorbance",,,17500 nM
